{"data": "Measurements gathered from unrelated publications", "note": "A part holds a random share of what one study measured."}
{"data": "Series 1", "target": "RING finger protein unkempt homolog, zinc fingers 1-6, GST-SBP tag (UNK, Homo sapiens, UniProt Q9C0B0, residues 30-357)", "technique": "RNA Bind-n-Seq", "form": "RNA", "sample": "in vitro", "concentration": "not given", "setting": "RNA with constant flanks, ends assumed", "relative to": "input RNA pool", "reading": "higher = stronger binding", "Target sequence (chain)": "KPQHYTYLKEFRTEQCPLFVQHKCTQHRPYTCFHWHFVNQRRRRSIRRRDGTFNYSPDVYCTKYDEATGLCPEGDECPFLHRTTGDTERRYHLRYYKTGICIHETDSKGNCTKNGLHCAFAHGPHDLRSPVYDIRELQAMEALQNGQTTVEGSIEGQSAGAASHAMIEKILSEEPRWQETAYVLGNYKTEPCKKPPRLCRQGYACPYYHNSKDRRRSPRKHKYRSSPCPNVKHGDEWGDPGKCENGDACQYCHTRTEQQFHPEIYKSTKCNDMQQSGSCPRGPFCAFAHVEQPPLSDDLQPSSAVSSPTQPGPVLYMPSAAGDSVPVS"}
{"Strand": "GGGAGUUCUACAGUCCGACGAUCAUUACUGUCUUGCUGAUCUUGCAUCUUUAAUGGAUAAAACAUUUGAGAGAAAGUUGCCUGUCCGUUCUUUAACAAUAUCACGGCUUAUAGACAACAUUUCCUCUCGGGAAGAGAUAGAUCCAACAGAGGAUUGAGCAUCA", "bound/input enrichment [ratio]": 0.33}
{"Strand": "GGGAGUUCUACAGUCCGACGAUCAUAAGUAAUUCUCCCCACUUGAUUUUUCUUCUAUAAAAUCCCAUAGAACAAUGUUUAUGCUACCGCCAUUUAAUAUAUGUACAAAUUGUAAAGAAUAUGUAUAAAUGUUUUACACGAAUGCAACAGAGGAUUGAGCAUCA", "bound/input enrichment [ratio]": 1.15}
{"Strand": "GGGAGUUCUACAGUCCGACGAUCAUGUGGUAUCGUUUACGGUUAUUAAAACCCCAGCCAAAUAUUAUUCCUACAGUAAAGAAAACCGUUCUGCUUGCAGGAUGGGCACUGUUCUUAUUUCUUGCAUACAAAGUUUCCAAAACACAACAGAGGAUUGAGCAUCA", "bound/input enrichment [ratio]": 0.175}
{"Strand": "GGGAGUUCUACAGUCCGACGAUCAGGAGUGAUGUAAUGGAGCUCCUUAAGAAGUCGGCCGAGGAAAGAAAACCUUAAAGGGACACCCGUGUGAUGCUUUGUCUUAAUGUGGGUUUUUCUGUUUCAGUUUGCCACCUCCAGAUGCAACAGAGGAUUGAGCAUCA", "bound/input enrichment [ratio]": 0.169}
{"Strand": "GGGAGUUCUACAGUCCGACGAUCACCAGGGAUGAGACCAACUAUGGAAUUCCACAGCGUGCUCUGCGGGGUCACUCCCACUUUGUCCGUGAUGUGGUUAUCUCCUCAGAUGGCCAGUUUGCCCUCUCAGGCUCCUGGGAUGGACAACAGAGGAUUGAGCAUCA", "bound/input enrichment [ratio]": 0.0475}
{"Strand": "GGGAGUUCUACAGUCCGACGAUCUCAGGUGUUUGUAGUUAUUCAUACUGUAAAAAGAGGUAGCAUGAUAUGCUGGGACGCAUAUUCCGACCAGGAGCCCAAGGUGGACUCCUCGUCUUGAAUUUGCCAUUAACGUGCUGCAUGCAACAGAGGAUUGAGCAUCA", "bound/input enrichment [ratio]": 0.167}
{"Strand": "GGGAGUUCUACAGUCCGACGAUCAACGCCAUGAAUUCCUUUGUUUAAUUUUUAAGCUCUUUGCCAAUAUUCCAUUUCUCCCGAAUGUUUAUCCUAAGCACUUGUUUGUCAGCCCUCUCAUACUAUGAACAUAUGGGUAGAGAGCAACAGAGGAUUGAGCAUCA", "bound/input enrichment [ratio]": 1.02}
{"Strand": "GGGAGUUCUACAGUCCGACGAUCGAUAUGUUUUAUAGGAAUUGGGCACUUAAGGAAAGCUUCAUAAAAGCCAUUGGUGUUGGACCCGGAUUUGAAUUGCAGCGGCUUGAAUUUGAUCUAUCUCCAUUAAACUUGGAUAUAGGCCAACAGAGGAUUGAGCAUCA", "bound/input enrichment [ratio]": 0.458}
{"data": "Series 2", "target": "Ras GTPase-activating protein-binding protein 1, C-terminal RGG region (G3BP1, Homo sapiens, UniProt Q13283)", "technique": "RNA Bind-n-Seq", "form": "RNA", "sample": "in vitro", "concentration": "1 µM", "setting": "whole 134-nt RNA, ends assumed", "with": "150 mM KCl", "relative to": "input library", "reading": "higher = stronger binding", "chain of UniProt Q13283 (whole entry, looked up)": "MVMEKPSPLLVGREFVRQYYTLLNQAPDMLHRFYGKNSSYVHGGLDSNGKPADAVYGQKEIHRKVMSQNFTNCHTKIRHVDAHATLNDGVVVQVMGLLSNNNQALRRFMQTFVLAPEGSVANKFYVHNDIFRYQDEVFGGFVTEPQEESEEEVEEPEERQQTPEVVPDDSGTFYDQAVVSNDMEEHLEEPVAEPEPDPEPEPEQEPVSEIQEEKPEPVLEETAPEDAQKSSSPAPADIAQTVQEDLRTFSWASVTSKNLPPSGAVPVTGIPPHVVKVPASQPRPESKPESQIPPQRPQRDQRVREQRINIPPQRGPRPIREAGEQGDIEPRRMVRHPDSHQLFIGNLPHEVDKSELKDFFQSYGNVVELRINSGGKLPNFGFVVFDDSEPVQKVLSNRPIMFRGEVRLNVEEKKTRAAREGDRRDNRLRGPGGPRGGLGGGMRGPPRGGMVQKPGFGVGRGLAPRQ"}
{"Strand": "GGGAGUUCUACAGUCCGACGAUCAGUCCUGUGCUACACAUCGUAUGUACCGAAUCGGGGCCCCGGGCCCCGGCCCCGGGGAAAGUAUUAUGUUACGCCGUUCGGAUCUGCACUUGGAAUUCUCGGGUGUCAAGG", "log2 enrichment": -2.21}
{"Strand": "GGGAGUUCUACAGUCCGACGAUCCCUCAAGUCCUGUGCUACACAUCGUAUGUACCGAAUCGGUGGGUGGGGUGGGGAAAGUAUUAUGUUACGCCGUUCGGAUCUGCACUUCCAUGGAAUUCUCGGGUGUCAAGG", "log2 enrichment": 0.596}
{"Strand": "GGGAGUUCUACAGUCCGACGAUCAAGUCCUGUGCUACACAUCGUAUGUACCGAAUCGGGGUUUGGUUUGGGGUUUGGGGAAAGUAUUAUGUUACGCCGUUCGGAUCUGCACUUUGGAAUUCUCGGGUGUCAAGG", "log2 enrichment": -0.183}
{"Strand": "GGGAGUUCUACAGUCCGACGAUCACCAUGCAGGUGGGCAUCUUUGGGAAGUGGGGCAAGGGGGGGAUAGGGAGGGGGGGAACACUUUGGGAACAGGUGGUCCCAGGUCGUUUCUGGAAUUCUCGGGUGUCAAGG", "log2 enrichment": 1.5}
{"Strand": "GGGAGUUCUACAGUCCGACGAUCUCCUGUGCUACACAUCGUAUGUACCGAAUCAAAUUUAAAUUUUUUUAAACCCCCCCAAAAAAGUAUUAUGUUACGCCGUUCGGAUCUGCAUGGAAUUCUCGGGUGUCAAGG", "log2 enrichment": -0.568}
{"Strand": "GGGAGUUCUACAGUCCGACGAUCAAGUCCUGUGCUACACAUCGUAUGUACCGAAUCGGGGAAAAGGAAAAGGGGAAAAGGAAAGUAUUAUGUUACGCCGUUCGGAUCUGCACUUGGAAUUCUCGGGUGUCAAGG", "log2 enrichment": -1.34}
{"Strand": "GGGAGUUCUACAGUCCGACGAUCUGACCUGCACGGACAUCAACACCCUGACAAGGCAGAAGGAACUUCUCCUGCAGAAGCUGAGCACAUUUGAGGAGACCAACCGCACCCUCCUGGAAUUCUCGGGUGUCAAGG", "log2 enrichment": -0.27}
{"Strand": "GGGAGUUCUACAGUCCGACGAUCUGGGAGGUGGAUUUUGUUUAUUUUUUUAGCUCAUUUCCAGGGGUGGGAAUCUUUUUUUAAUAUGUGUCAUGAAUAAAGUUGUUUUUGAAAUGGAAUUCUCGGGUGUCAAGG", "log2 enrichment": 3.93}
{"Strand": "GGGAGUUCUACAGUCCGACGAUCUAACUUUAGAGGAGGAUCUGAUGGAUAUGGCAGUGGACGUGGAUUUGGGGAUGGCUAUAAUGGGUAUGGAGGUGGACCUGGAGGUGGCAAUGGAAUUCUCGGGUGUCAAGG", "log2 enrichment": -1.08}
{"Strand": "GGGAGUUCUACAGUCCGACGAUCCUGUGCUACACAUCGUAUGUACCGAAUCGGGGAAAAAAAGGAAAAAAAGGGAAAAAAAGGGAAAGUAUUAUGUUACGCCGUUCGGAUCUGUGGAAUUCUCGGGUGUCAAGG", "log2 enrichment": -1.72}
{"Strand": "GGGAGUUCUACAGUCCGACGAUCUCCUGUGCUACACAUCGUAUGUACCGAAUCGGUUUUUUUGGUUUUUUUGGUUUUUUUGGAAAGUAUUAUGUUACGCCGUUCGGAUCUGCAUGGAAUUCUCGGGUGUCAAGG", "log2 enrichment": -0.724}
{"Strand": "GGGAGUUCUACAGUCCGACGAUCCACAGACAACACGCACCCACACAGACACAGAGGGAAGGGGUUGGGAUGGGGACAGGGUGCACAGCAGGGCGGGGUAGGACCAAAGCCCCUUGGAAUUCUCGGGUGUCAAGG", "log2 enrichment": -0.255}
{"data": "Series 3", "target": "Interferon regulatory factor 7, full length, phosphomimetic (IRF7, Homo sapiens, UniProt Q92985, residues 1-503, S101K/S471D/S472D/S475D/S476D/S477D/S483D/S484D/S487D)", "technique": "protein-binding microarray", "form": "double-stranded DNA, one strand shown", "sample": "in vitro", "concentration": "250 nM", "setting": "60-bp whole probe", "with": "salmon DNA 0.4 mg/ml", "relative to": "random background probes", "reading": "higher = stronger binding", "all sequences stand within": "GCCTAGCAC … GTCTTGATTCGCTTGACGCTGCTG", "Construct (chain)": "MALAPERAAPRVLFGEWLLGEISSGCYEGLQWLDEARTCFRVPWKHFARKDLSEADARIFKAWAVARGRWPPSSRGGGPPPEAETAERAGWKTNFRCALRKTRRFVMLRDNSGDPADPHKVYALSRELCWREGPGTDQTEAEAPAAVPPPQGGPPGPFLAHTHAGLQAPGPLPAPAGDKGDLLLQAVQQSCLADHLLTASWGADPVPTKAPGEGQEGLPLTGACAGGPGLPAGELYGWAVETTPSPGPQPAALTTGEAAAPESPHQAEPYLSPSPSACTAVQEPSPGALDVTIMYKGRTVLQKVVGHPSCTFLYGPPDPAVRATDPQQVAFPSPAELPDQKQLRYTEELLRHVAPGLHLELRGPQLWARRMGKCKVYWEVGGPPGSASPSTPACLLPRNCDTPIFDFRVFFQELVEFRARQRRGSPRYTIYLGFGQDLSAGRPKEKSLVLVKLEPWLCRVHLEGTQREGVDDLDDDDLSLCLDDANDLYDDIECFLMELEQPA"}
{"Strand": "GGGTGTGTGAGTGTGTGTGCGTGCTAG", "log fluorescence [z-score]": -1.02}
{"Strand": "TCATTTTTCTCCTATTTAACTGTGCTA", "log fluorescence [z-score]": 1.58}
{"Strand": "GACGGAATCGGGTTTCGGGACGTGCTA", "log fluorescence [z-score]": 2.89}
{"Strand": "TTAGGTCTCGGTCTTGGTTAGTGCTAG", "log fluorescence [z-score]": 1.37}
{"Strand": "TTAGGACTGGACACTGTGTTAGTGCTA", "log fluorescence [z-score]": -0.573}
{"Strand": "GACGGTTCCGGTTTTGGGACGTGCTAG", "log fluorescence [z-score]": 4.33}
{"Strand": "TTAGGTATCCCTATCCTTTAGTGCTAG", "log fluorescence [z-score]": 0.191}
{"Strand": "GACGATTTCAGTTCCGATACGTGCTAG", "log fluorescence [z-score]": 0.783}
{"Strand": "TTAGGTCTCGGTCTCGGTGAGTGCTAG", "log fluorescence [z-score]": 1.23}
{"Strand": "GACGTACTGGGGACTGGAGACGTGCTA", "log fluorescence [z-score]": -0.157}
{"Strand": "TTCGGTTTCGACTATCGGTTAGTGCTA", "log fluorescence [z-score]": 6.43}
{"Strand": "GACGGACTGAGTCTCGAGACGTGCTAG", "log fluorescence [z-score]": -0.108}
{"Strand": "GACGATATCCTACTGCTGACGTGCTAG", "log fluorescence [z-score]": -0.0783}
{"Strand": "CTAGGACTGGGTATCGGTTAGTGCTAG", "log fluorescence [z-score]": 1.01}
{"Strand": "AAGCAGTTACTCTAGAGGCCGTGCTAG", "log fluorescence [z-score]": -0.618}
{"Strand": "CCAGCAGGGTTAGGCTTGCTGTGCTAG", "log fluorescence [z-score]": -0.986}
{"Strand": "TTAGGTTTCCTTCTCGTTTAGTGCTAG", "log fluorescence [z-score]": 2.66}
{"Strand": "TTAGATCTCATACTGGATTAGTGCTAG", "log fluorescence [z-score]": -0.0041}
{"data": "Further values, each from its own experiment"}
{"Molecule": "PhoQ, residues 284 288 289 292 302 303 SLGVVW", "target": "PhoP, residues 12 14 15 18 19 TQAIL (Escherichia coli, UniProt P23836)", "test": "Sort-seq, measured: YFP reporter", "system": "E. coli", "conditions": "PhoQ-PhoP variant library, with: 10 µM Mg2+", "scale": "relative to: high Mg2+ state, higher = stronger signaling", "endpoint": "fold induction", "result": 5.93}
{"note": "Excerpt of the above (series 2):"}
{"Strand": "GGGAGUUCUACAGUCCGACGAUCAAGUCCUGUGCUACACAUCGUAUGUACCGAAUCGGGGAAAAGGAAAAGGGGAAAAGGAAAGUAUUAUGUUACGCCGUUCGGAUCUGCACUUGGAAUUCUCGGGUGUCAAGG", "log2 enrichment": -1.34}
{"Strand": "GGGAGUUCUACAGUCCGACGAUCUGACCUGCACGGACAUCAACACCCUGACAAGGCAGAAGGAACUUCUCCUGCAGAAGCUGAGCACAUUUGAGGAGACCAACCGCACCCUCCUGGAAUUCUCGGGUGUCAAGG", "log2 enrichment": -0.27}
{"Strand": "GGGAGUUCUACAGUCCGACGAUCUGGGAGGUGGAUUUUGUUUAUUUUUUUAGCUCAUUUCCAGGGGUGGGAAUCUUUUUUUAAUAUGUGUCAUGAAUAAAGUUGUUUUUGAAAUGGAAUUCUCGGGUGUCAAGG", "log2 enrichment": 3.93}
{"Strand": "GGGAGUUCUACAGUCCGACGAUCUAACUUUAGAGGAGGAUCUGAUGGAUAUGGCAGUGGACGUGGAUUUGGGGAUGGCUAUAAUGGGUAUGGAGGUGGACCUGGAGGUGGCAAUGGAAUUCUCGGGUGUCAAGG", "log2 enrichment": -1.08}
{"Strand": "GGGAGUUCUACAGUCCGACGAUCCUGUGCUACACAUCGUAUGUACCGAAUCGGGGAAAAAAAGGAAAAAAAGGGAAAAAAAGGGAAAGUAUUAUGUUACGCCGUUCGGAUCUGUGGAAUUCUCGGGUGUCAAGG", "log2 enrichment": -1.72}
{"Strand": "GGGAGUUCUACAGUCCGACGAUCUCCUGUGCUACACAUCGUAUGUACCGAAUCGGUUUUUUUGGUUUUUUUGGUUUUUUUGGAAAGUAUUAUGUUACGCCGUUCGGAUCUGCAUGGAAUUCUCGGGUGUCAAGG", "log2 enrichment": -0.724}
